Assay results gathered from unrelated publications.
Each line is one published result; not all experiments were run side by side. ± gives the spread as reported.
SLCO1B3: Solute carrier organic anion transporter family member 1B3 (SLCO1B3, Homo sapiens, UniProt Q9NPD5)
UniProt Q9NPD5, sequence (whole entry, looked up): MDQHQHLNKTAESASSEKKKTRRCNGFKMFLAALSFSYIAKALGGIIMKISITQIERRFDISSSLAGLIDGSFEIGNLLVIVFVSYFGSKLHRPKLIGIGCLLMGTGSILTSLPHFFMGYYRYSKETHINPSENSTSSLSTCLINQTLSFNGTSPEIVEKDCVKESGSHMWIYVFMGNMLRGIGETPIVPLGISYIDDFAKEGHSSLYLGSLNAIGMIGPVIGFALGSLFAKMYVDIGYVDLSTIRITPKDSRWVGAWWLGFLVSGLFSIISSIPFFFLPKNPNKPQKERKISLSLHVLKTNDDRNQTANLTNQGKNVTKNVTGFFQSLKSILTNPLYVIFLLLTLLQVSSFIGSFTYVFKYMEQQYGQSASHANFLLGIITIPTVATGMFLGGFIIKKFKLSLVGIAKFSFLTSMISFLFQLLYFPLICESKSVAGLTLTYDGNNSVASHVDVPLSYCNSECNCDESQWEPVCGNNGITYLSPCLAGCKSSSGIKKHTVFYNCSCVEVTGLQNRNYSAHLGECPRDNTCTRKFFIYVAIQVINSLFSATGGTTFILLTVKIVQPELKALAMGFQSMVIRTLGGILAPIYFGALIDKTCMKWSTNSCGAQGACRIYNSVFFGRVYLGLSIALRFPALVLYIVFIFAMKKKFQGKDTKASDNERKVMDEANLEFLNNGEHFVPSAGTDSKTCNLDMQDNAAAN
Tumor necrosis factor receptor superfamily member 9/Nectin-4: Tumor necrosis factor receptor superfamily member 9/Nectin-4 (Homo sapiens, UniProt Q07011+Q96NY8)
UniProt Q07011, sequence (whole entry, looked up): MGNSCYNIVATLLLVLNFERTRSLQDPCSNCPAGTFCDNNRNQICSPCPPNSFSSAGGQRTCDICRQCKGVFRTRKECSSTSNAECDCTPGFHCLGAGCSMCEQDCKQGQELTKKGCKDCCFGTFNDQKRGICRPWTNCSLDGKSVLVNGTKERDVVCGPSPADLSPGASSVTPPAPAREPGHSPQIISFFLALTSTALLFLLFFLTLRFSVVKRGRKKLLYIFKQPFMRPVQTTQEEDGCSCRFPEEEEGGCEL
UniProt Q96NY8, sequence (whole entry, looked up): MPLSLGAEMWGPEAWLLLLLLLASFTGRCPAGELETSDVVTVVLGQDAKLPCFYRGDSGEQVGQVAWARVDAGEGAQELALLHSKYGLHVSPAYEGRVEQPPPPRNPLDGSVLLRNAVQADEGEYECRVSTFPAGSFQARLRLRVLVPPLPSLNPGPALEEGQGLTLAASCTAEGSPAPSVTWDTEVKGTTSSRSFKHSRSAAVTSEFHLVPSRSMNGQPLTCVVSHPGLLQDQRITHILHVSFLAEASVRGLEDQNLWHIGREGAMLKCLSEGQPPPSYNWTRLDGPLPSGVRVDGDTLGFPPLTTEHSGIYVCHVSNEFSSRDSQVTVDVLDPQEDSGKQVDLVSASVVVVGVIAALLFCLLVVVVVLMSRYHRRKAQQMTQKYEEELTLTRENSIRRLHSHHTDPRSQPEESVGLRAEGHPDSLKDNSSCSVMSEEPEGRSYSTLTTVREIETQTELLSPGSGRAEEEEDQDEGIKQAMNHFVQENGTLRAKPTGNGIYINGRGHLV
UniProt Q05421, sequence (whole entry, looked up): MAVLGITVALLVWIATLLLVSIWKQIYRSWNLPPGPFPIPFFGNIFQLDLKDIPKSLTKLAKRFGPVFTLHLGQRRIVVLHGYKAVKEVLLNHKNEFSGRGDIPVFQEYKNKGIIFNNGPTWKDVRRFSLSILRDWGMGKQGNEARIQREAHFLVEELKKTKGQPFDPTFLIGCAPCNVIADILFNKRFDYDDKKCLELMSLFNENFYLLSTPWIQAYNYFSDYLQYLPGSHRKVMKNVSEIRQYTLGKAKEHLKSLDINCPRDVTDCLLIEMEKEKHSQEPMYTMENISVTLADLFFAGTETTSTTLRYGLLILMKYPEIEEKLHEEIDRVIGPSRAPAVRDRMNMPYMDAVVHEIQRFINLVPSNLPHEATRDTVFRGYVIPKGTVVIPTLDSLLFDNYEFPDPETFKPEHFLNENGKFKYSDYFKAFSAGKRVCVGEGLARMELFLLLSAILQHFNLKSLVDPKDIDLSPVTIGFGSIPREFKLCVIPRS
UniProt P08183, sequence (whole entry, looked up): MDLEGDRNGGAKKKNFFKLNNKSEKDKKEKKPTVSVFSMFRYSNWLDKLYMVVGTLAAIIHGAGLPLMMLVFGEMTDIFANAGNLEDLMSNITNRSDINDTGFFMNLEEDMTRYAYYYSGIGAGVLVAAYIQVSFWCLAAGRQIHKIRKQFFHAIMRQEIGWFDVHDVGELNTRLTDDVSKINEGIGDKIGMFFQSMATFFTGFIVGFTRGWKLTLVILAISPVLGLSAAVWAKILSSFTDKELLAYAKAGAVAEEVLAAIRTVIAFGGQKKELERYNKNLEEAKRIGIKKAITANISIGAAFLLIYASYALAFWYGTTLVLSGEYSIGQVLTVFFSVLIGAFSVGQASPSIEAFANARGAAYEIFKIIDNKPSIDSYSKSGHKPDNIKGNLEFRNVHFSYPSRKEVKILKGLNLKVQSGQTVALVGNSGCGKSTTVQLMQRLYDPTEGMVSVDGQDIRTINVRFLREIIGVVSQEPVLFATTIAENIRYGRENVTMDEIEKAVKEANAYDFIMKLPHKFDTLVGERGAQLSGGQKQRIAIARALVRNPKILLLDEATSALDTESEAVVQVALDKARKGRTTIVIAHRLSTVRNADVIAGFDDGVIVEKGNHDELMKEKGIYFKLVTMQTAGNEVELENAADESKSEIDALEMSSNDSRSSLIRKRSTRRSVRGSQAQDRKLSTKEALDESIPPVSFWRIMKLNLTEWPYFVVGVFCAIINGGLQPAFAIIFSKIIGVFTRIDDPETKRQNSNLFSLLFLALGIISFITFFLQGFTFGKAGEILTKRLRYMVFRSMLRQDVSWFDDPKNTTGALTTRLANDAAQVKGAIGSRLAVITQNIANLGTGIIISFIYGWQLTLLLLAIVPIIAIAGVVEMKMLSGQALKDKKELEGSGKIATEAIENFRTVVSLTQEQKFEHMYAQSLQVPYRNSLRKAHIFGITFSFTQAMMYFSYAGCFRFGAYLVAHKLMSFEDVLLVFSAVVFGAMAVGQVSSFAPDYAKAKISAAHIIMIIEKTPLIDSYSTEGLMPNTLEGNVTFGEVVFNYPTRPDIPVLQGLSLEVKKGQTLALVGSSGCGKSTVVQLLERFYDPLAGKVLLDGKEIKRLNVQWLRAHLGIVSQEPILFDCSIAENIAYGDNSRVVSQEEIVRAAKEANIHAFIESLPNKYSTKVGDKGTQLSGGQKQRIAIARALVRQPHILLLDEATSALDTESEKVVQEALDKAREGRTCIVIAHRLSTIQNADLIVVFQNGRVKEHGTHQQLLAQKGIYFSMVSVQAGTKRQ
UniProt Q9UNQ0, sequence (whole entry, looked up): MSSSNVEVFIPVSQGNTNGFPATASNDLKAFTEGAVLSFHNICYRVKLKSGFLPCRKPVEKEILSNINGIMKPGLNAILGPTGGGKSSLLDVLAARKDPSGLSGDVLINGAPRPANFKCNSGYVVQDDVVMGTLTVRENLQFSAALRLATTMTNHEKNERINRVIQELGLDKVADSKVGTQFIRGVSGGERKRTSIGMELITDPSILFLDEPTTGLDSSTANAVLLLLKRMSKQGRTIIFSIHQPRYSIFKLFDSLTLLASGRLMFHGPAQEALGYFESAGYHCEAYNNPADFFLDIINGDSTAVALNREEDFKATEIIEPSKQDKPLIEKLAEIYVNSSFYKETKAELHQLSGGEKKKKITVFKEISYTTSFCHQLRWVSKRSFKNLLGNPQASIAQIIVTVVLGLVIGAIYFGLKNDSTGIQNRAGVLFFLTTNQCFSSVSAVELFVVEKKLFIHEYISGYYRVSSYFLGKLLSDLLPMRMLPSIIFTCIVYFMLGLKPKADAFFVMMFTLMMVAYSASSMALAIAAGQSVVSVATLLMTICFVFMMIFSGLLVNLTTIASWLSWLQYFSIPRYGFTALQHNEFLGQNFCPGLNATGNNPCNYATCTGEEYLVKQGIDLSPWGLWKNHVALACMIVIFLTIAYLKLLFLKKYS
UniProt Q86VL8, sequence (whole entry, looked up): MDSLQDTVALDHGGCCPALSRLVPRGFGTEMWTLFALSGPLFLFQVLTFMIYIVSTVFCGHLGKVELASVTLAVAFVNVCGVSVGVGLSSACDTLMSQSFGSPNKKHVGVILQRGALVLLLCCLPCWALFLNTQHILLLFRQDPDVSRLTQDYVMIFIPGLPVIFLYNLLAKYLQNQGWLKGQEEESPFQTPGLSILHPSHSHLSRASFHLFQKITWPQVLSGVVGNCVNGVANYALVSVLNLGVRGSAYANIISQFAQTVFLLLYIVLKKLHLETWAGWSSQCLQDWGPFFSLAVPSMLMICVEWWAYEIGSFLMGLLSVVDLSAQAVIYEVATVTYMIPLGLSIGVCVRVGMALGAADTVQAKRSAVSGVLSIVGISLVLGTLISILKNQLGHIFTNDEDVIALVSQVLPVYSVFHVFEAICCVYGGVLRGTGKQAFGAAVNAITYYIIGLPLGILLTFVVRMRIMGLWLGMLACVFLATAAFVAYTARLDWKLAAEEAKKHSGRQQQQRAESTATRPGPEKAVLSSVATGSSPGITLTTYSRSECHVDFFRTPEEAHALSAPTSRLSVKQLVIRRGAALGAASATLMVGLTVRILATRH

SMILES | target or system | assay | system | conditions | how to read | endpoint | value
CC1(C)[C@H](C(=O)OCc2cccc(Oc3ccccc3)c2)[C@@H]1C=C(Cl)Cl | CES2 human cytosolic |  |  | 0.1 µM, age 5 years |  | enzyme contribution | 5.57%
CC(C)CC(=O)OC[C@H]1O[C@@](C#N)(c2ccc3c(N)ncnn23)[C@H](O)[C@@H]1O | ABCB1 (Homo sapiens, UniProt P08183) |  | Caco-2 | 9 µM, with: zosuquidar 25 µM |  | Papp B to A | 0.535 ×10⁻⁶ cm/s
O=c1ccc2ncc(=O)n3c2n1C[C@H]3CN1CCC(NCc2cc3c(cn2)OCCC3)CC1 | ABCG2 (Homo sapiens, UniProt Q9UNQ0) | substrate | transporter-overexpressing cell monolayers |  |  | efflux ratio | 11 to 15
O=C1CCC(N2C(=O)c3ccccc3C2=O)C(=O)N1 (centres unmarked) | SLC47A2 (Homo sapiens, UniProt Q86VL8) | transport, inhibitor | transiently transfected cells | 100 µM, 10 (unit not given), with: thiamine |  | inhibition | 4%
Cc1ccc(-c2cccc(CN3CCCC(c4nc5ccc(C)cc5c(=O)[nH]4)C3)c2)c(C)c1 (centres unmarked) | Vero-E6 | CellTiter-Glo ATP |  | concentration not given, 72 h, second round 5-point | baseline: DMSO 0%, hyamine -100%, more negative, more toxic | cytotoxicity efficacy | 0%
O=C(O)C(F)(F)C(F)(F)C(F)(F)C(F)(F)C(F)(F)C(F)(F)C(F)(F)F | SLCO1B3 | uptake, substrate | CHO cells stably expressing SLCO1B3 | 1 min, 37 °C |  | Jmax | 2690 ± 470 pmol/min/mg protein
C=CC1CO1 (centres unmarked) | Cytochrome P450 2E1 (Cyp2e1, Mus musculus, UniProt Q05421) | 4-nitrophenol oxidation, inhibitor | B6C3F1 mouse, liver microsomes |  |  | Ki | 29 µM
CCCC[C@@H]1NC(=O)[C@H](Cc2ccc(O)cc2)NC(=O)[C@@H]2CCCN2C(=O)[C@H](CC(=O)O)NC(=O)[C@H](C)NC(=O)[C@H](Cc2ccccc2)NC(=O)[C@@H]2CSCCC(=O)N3CN(CN(C3)C(=O)CCSC[C@@H](C(=O)N[C@@H](C)C(N)=O)NC1=O)C(=O)CCSC[C@H](NC(C)=O)C(=O)N[C@@H](CC(C)(C)C)C(=O)N1CCC[C@H]1C(=O)N[C@@H](CCC(=O)O)C(=O)N[C@H](CCCCNC(=O)CCc1cn(CCOCCOCCOCCOCCOCCC(=O)NCCCC[C@H]3NC(=O)[C@H](Cc4cccc5ccccc45)NC(=O)[C@@H]4CCCN4C(=O)[C@@H](NC(C)=O)CSCCC(=O)N4CN5CN(C4)C(=O)CCSC[C@H](NC3=O)C(=O)N[C@@H](CCSC)C(=O)N[C@@H](CCCCNC(=N)N)C(=O)N[C@@H](Cc3c[nH]cn3)C(=O)N[C@@H](Cc3c[nH]c4ccccc34)C(=O)N[C@@H](CO)C(=O)N[C@@H]([C@@H](C)O)C(=O)N3CCC[C@H]3C(=O)N3C[C@H](O)C[C@H]3C(=O)N[C@@H](Cc3c[nH]c4ccccc34)C(=O)N[C@H](C(N)=O)CSCCC5=O)nn1)C(=O)N1CCC[C@H]1C(=O)N[C@@H](Cc1ccc(O)cc1)C(=O)N2 | Tumor necrosis factor receptor superfamily member 9/Nectin-4 | reporter gene, agonist, luciferase reporter | CD137 Jurkat reporter with HT-1376 | 6 h, geometric mean | baseline: wells without compound | Emax | 39 fold
CCCCCCCCc1ccc(CCC(N)(CO)CO)cc1 | SLCO1B3 | transport, inhibitor | transiently transfected cells | 100 µM, 10 (unit not given), with: CCK-8 |  | inhibition | 59.3%
CCCC[C@@H]1NC(=O)[C@H](Cc2ccc(O)cc2)NC(=O)[C@@H]2CCCN2C(=O)[C@H](CC(=O)O)NC(=O)[C@H](C)NC(=O)[C@H](Cc2ccccc2)NC(=O)[C@@H]2CSCCC(=O)N3CN(CN(C3)C(=O)CCSC[C@@H](C(=O)N[C@@H](CNC(=O)CCc3cn(CCOCCOCCOCCN(CCOCCOCCOCCC(=O)N[C@H]4CSCCC(=O)N5CN6CN(C5)C(=O)CCSC[C@H](NC(=O)[C@@H](CC(=O)O)NC(=O)[C@H](Cc5cccc7ccccc57)NC(=O)[C@@H]5CCCN5C4=O)C(=O)N[C@@H](CCSC)C(=O)N[C@@H](CCCCNC(=N)N)C(=O)N[C@@H](CC(=O)O)C(=O)N[C@@H](Cc4c[nH]c5ccccc45)C(=O)N[C@@H](CO)C(=O)N[C@@H]([C@@H](C)O)C(=O)N4CCC[C@H]4C(=O)N4C[C@H](O)C[C@H]4C(=O)N[C@@H](Cc4c[nH]c5ccccc45)C(=O)N[C@H](C(N)=O)CSCCC6=O)CCOCCOCCOCCn4cc(CCC(=O)NC[C@H](NC(=O)[C@@H]5CSCCC(=O)N6CN7CN(C6)C(=O)CCSC[C@H](NC(=O)[C@H](Cc6ccc(O)cc6)NC(=O)[C@@H]6CCCN6C(=O)[C@@H](C)NC(=O)[C@H](CCC(=O)O)NC(=O)[C@@H]6CCCN6C(=O)[C@H](CC(C)(C)C)NC(=O)[C@@H](NC(C)=O)CSCCC7=O)C(=O)N[C@@H](Cc6ccccc6)C(=O)N[C@@H](C)C(=O)N[C@@H](CC(=O)O)C(=O)N6CCC[C@H]6C(=O)N[C@@H](Cc6ccc(O)cc6)C(=O)N[C@@H](CCCC)C(=O)N5)C(N)=O)nn4)nn3)C(N)=O)NC1=O)C(=O)CCSC[C@H](NC(C)=O)C(=O)N[C@@H](CC(C)(C)C)C(=O)N1CCC[C@H]1C(=O)N[C@@H](CCC(=O)O)C(=O)N[C@H](C)C(=O)N1CCC[C@H]1C(=O)N[C@@H](Cc1ccc(O)cc1)C(=O)N2 | Tumor necrosis factor receptor superfamily member 9/Nectin-4 | reporter gene, agonist, luciferase reporter | CD137 Jurkat reporter with HT-1376 | 6 h, geometric mean | baseline: wells without compound | Emax | 59 fold
CCOc1ccccc1CNCc1cccn1-c1nnc(N2CCN(c3ccccc3)CC2)s1 | Vero-E6 | CellTiter-Glo ATP |  | concentration not given, 72 h, first round 5-point | baseline: DMSO 0%, hyamine -100%, more negative, more toxic | cytotoxicity efficacy | -25.1%
